Measurements pooled from the literature.
Parts stem from different laboratories: compare values within a part only. Several values in a cell are separate wells, animals, samples, runs or records.

Sample 1
Target: Fragile X messenger ribonucleoprotein 1, C-terminal low-complexity region (Fmr1, Mus musculus, UniProt P35922)
Method: RNA Bind-n-Seq
Form: RNA
Sample: in vitro
Concentration: 200 nM
Setting: whole 134-nt RNA, ends assumed
Added: 150 mM KCl
Relative to: input library
Direction: higher = stronger binding
`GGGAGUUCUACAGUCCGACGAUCUCCUGUGCUACACAUCGUAUGUACCGAAUCGGGAAAAAAGGGGAAAAAAGGGAAAAAAGGAAAGUAUUAUGUUACGCCGUUCGGAUCUGCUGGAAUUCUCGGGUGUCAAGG` gave a log2 enrichment of -0.417.
`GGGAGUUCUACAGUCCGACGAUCUUUGGCAAUGAGAUCUAAACCAGACAAAGACCUCCUUAUGGAAGAAGAUGACAUGGCCUUGGCAAAUGUAGUCAUGCAGGAAGCUCAGAAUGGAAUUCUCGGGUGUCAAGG` has a log2 enrichment of -1.6.
`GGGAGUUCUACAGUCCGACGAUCCUCAAGUCCUGUGCUACACAUCGUAUGUACCGAAUCGGGAAGGGAAGGGAAGGAAAGUAUUAUGUUACGCCGUUCGGAUCUGCACUUCCAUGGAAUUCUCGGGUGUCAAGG` has a log2 enrichment of -0.121.
`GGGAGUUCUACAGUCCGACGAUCGUCCUGUGCUACACAUCGUAUGUACCGAAUCGGGGAAAAGGGGAAAAGGGGAAAAGGGGAAAGUAUUAUGUUACGCCGUUCGGAUCUGCAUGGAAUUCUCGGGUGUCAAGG` gave a log2 enrichment of 0.0975.
The log2 enrichment of `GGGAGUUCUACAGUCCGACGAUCAAGUCCUGUGCUACACAUCGUAUGUACCGAAUCGGGGAAAGGGGAAAGGGGAAAGGGAAAGUAUUAUGUUACGCCGUUCGGAUCUGCACUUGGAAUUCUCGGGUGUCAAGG` is reported as 0.213.
The log2 enrichment of `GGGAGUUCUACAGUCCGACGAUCUCCUCAAGUCCUGUGCUACACAUCGUAUGUACCGAAUCGGCGGGGCGGCGGGAAAGUAUUAUGUUACGCCGUUCGGAUCUGCACUUCCAGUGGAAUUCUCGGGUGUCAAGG` is reported as 0.308.
The log2 enrichment of `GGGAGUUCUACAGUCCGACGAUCAAGUCCUGUGCUACACAUCGUAUGUACCGAAUCGGGGUGGGGUUUGGGGAAAGGGGAAAGUAUUAUGUUACGCCGUUCGGAUCUGCACUUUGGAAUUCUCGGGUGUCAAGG` is reported as 1.17.
`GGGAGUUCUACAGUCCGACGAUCCCUCAAGUCCUGUGCUACACAUCGUAUGUACCGAAUCGGGUGGGUGGGGUGGGAAAGUAUUAUGUUACGCCGUUCGGAUCUGCACUUCCAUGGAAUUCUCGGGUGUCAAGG` has a log2 enrichment of 0.616.

Sample 2
Cell line: normal-adjacent epithelium patient-derived organoids sample G
Method: CellTiter-Glo
Concentration: 1 µM
Relative to: DMSO
`Cc1cc2c(-c3ccco3)cnc(N[C@H]3CCN(C)C[C@@H]3C(=O)NC3CCCCC3)c2[nH]c1=O` gave a viability of 99.8%.
The viability of `CC(=O)NCC(=O)N1[C@@H]2CC[C@H]1c1ccc(Nc3ncc(C(F)(F)F)c(NC4CCC4)n3)cc12` is reported as 10.1% and 13.1%.
The viability of `CN(C)C(=O)Cn1cc(-c2ccc(-c3nnc4ccccn34)cc2)cn1` is reported as 132% and 113%.
`CCC(=N\O)/C(C)=C/c1ccc(F)cc1` gave a viability of 101% and 108%.
For `Cl.Cl.NC1(c2ccc(-c3nc4ccn5c(=O)[nH]nc5c4cc3-c3ccccc3)cc2)CCC1`, the viability was 88.7% and 88.2%.

Sample 3
Species: mouse
Sample: microsomes or S9
Concentration: 2 µM
Time: 0.5 h
The remaining compound of `O=C1CCc2cc(S(=O)(=O)Nc3ccc(Cc4ccncc4)cc3)ccc2N1` is reported as 47%.
`COc1ccc(C2C(C(=O)N3CCN(c4cc(Cl)ccc4C)CC3)CCC(=O)N2c2cc(OC)c(OC)c(OC)c2)cc1` (stereo not shown) gave a remaining compound of 12%.
The remaining compound of `Cc1ccc(C2Nc3ccc4ccccc4c3C3=C2CC(C)(C)CC3=O)o1` (stereo not shown) is reported as 4.19%.
For `O=C(Nc1ccc2c(c1)COC2=O)c1ccc(Cl)c(Cl)c1`, the remaining compound was > 99%.
The remaining compound of `Cn1c(=O)c2sc3c(c2n(CCN2CCCCC2)c1=O)CCCC3` is reported as 9.3%.
The remaining compound of `COc1cccc2c1OC1(CCN(Cc3ccccc3)CC1)N1N=C(c3ccc(C)o3)CC21` (stereo not shown) is reported as 0.897%.
For `COc1cccc(-c2c3c(cc(OC)c2OC)C(=O)N(c2cccc(C(=O)O)c2)C3)c1`, the remaining compound was 73.2%.

Sample 4
Target: Serine/threonine-protein kinase B-raf (BRAF, Homo sapiens, UniProt P15056)
Chain of UniProt P15056 (whole entry, looked up): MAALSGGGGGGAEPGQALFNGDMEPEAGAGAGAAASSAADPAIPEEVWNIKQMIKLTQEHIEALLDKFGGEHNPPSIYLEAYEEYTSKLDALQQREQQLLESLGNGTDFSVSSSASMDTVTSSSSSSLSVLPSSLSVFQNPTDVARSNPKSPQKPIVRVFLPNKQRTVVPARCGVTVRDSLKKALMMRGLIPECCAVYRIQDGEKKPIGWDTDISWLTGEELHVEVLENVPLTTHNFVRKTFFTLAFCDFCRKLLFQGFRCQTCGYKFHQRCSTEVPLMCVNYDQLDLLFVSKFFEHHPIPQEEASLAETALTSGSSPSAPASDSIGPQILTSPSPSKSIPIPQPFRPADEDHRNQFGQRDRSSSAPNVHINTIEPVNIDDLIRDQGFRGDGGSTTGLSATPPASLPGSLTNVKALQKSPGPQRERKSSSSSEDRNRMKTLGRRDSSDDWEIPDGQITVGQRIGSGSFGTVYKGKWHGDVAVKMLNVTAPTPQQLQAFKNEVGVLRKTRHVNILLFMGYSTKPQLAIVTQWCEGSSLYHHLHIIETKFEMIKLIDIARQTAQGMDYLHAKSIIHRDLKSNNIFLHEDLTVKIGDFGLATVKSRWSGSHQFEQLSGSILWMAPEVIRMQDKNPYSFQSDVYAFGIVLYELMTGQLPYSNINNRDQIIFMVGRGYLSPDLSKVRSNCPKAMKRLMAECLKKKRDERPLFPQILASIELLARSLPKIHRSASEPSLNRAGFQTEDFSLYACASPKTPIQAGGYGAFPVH
Effect on: enzyme activity
Action: inhibitor
Concentration: 0.5 µM
Relative to: control
The remaining activity of `O=Nc1c(-c2c(O)[nH]c3cc(Br)ccc23)[nH]c2ccccc12` is reported as 98.2%.
The remaining activity of `COc1ccc(COc2ccc(Cc3cnc(N)nc3N)cc2OC)cc1` is reported as 99%.
`c1ccc(-c2n[nH]c3c2oc2ccccc23)cc1` has a remaining activity of 96.9%.
`O=c1cc(N2CCOCC2)oc2c(-c3ccccc3)cccc12` gave a remaining activity of 95.9%.
`Cc1cc(Nc2cc(N3CCN(C)CC3)nc(Sc3ccc(NC(=O)C4CC4)cc3)n2)[nH]n1` has a remaining activity of 104%.
